Measured values of several laboratories.
Every numbered part comes from another study and shows a few of its results, in no order.

Sample 1
Target: Ras GTPase-activating protein-binding protein 1, full length (G3BP1, Homo sapiens, UniProt Q13283)
Sequence of UniProt Q13283 (whole entry, looked up): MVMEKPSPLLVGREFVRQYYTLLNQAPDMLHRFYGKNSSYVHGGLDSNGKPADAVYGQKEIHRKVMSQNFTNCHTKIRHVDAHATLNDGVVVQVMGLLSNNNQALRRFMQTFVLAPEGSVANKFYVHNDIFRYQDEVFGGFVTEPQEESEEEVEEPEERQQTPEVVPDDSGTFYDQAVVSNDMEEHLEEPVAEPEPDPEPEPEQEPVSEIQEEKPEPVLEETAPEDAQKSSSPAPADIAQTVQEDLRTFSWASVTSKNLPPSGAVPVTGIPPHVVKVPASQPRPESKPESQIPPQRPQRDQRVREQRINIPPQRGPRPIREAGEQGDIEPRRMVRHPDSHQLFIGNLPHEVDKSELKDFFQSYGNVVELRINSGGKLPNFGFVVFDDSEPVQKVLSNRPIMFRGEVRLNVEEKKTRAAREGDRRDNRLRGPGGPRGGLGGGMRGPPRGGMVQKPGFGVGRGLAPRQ
Method: RNA Bind-n-Seq
Form: RNA
Sample: in vitro
Concentration: 200 nM
Notes: whole 134-nt RNA, ends assumed
With: 150 mM KCl
Baseline: input library
Direction: higher = stronger binding
| Oligonucleotide | log2 enrichment |
| --- | --- |
| GGGAGUUCUACAGUCCGACGAUCACCAUGCAGGUGGGCAUCUUUAAAAAGUGGGGCAAGGGGGGGAUAGGGAGGGGGGUAACACUUUGGGAACAGGUGGUCCCAGGUCGUUUCUGGAAUUCUCGGGUGUCAAGG | 1.76 |
| GGGAGUUCUACAGUCCGACGAUCUGGCCCUGGUGGCAUGCGAGGAGGAAGAGGUGGCCUCAUGGAUCGUGGUGGUCCCGGUGGAAUGUUCAGAGGUGGCCGUGGUGGAGACAGUGGAAUUCUCGGGUGUCAAGG | 0.357 |
| GGGAGUUCUACAGUCCGACGAUCGUCCUGUGCUACACAUCGUAUGUACCGAAUCGGUUUUUUGGUUUUUUGGGUUUUUUGGGAAAGUAUUAUGUUACGCCGUUCGGAUCUGCAUGGAAUUCUCGGGUGUCAAGG | -1.11 |
| GGGAGUUCUACAGUCCGACGAUCAAGUCCUGUGCUACACAUCGUAUGUACCGAAUCGGCCCCGGGGCCCCGGGCCCCGGAAAGUAUUAUGUUACGCCGUUCGGAUCUGCACUUUGGAAUUCUCGGGUGUCAAGG | -1.08 |

Sample 2
Target: PABPC1L2, full length, GST fusion (mouse, UniProt A0ABA7IW68)
Method: RNAcompete
Form: RNA
Sample: in vitro
Concentration: 20 nM
Notes: 7-mer, probes averaged, single round
Baseline: mean of 7-mers
Direction: higher = stronger binding
Construct (chain): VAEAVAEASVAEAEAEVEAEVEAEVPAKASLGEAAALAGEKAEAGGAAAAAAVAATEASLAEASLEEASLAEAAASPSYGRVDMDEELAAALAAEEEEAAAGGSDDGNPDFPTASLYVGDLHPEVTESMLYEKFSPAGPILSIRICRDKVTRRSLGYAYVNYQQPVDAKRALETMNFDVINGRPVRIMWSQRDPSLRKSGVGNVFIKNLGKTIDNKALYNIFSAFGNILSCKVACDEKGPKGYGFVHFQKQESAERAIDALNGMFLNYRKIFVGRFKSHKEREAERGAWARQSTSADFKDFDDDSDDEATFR
| Oligonucleotide | 7-mer Z-score |
| --- | --- |
| GUGCCCC | -0.191 |
| UAUGUUA | -0.17 |
| GUAGUAA | 0.0152 |
| UGCCUCC | -0.38 |
| UACGCGU | -0.362 |
| UAGCCCG | -0.11 |
| AUGGAGA | 0.18 |
| GGAGUUU | -0.295 |
| CCGGUUC | -0.217 |

Sample 3
Target: Transcriptional repressor CTCF (CTCF, Homo sapiens, UniProt P49711, residues 1-727, full length assumed)
Sequence of UniProt P49711 (whole entry, looked up): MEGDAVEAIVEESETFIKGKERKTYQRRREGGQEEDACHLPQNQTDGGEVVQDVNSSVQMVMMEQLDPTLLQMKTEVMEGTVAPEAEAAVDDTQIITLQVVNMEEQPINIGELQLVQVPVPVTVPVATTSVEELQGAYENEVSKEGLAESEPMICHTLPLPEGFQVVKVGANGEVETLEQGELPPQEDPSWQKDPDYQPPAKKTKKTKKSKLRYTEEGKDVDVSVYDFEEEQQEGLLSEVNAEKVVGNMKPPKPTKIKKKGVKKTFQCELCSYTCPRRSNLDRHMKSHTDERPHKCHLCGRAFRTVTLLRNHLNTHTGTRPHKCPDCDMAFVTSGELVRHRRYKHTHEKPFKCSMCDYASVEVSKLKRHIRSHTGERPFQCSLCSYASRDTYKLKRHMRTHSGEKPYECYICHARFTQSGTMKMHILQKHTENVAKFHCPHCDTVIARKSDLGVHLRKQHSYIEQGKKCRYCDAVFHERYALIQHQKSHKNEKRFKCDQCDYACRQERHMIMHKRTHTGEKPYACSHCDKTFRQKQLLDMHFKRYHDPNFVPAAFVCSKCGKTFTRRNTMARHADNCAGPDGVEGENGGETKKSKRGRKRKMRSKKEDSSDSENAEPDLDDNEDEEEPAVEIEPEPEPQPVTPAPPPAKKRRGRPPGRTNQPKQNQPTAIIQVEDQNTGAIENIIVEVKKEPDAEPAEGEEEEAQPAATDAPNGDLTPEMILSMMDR
Method: protein-binding microarray
Form: double-stranded DNA, one strand shown
Sample: in vitro
Concentration: not given
Notes: k-mer, scored over probes, only values ≥0.25
Direction: higher = stronger binding
| Oligonucleotide | E-score |
| --- | --- |
| CGTATTTA | 0.333 |
| ATGCGCAT | 0.441 |
| GTTATTAA | 0.274 |
| GCATTATA | 0.315 |
| ACTAGTGG | 0.28 |
| AATAGCGC | 0.349 |
| AGATGCGC | 0.323 |
| AAAGTATA | 0.283 |

Mixed results
| Molecule | target | test | system | conditions | how to read | quantity | value |
| --- | --- | --- | --- | --- | --- | --- | --- |
| PhoQ, residues 284 288 289 292 302 303 TSTLRA | PhoP, residues 12 14 15 18 19 QYCSL (Escherichia coli, UniProt P23836) | Sort-seq, item: YFP reporter | E. coli | PhoQ-PhoP variant library, with: 10 µM Mg2+ | baseline: high Mg2+ state, higher = stronger signaling | fold induction | 2.12 |

Some of these lines once more (sample 3):
| Oligonucleotide | E-score |
| --- | --- |
| GTTATTAA | 0.274 |
| AAAGTATA | 0.283 |
